# Measured values pooled from the literature.
# Parts stem from different laboratories: compare values within a part only. Several values in a cell are separate wells, animals, samples, runs or records.
# Chain of UniProt P10721 (whole entry, unmodified, looked up): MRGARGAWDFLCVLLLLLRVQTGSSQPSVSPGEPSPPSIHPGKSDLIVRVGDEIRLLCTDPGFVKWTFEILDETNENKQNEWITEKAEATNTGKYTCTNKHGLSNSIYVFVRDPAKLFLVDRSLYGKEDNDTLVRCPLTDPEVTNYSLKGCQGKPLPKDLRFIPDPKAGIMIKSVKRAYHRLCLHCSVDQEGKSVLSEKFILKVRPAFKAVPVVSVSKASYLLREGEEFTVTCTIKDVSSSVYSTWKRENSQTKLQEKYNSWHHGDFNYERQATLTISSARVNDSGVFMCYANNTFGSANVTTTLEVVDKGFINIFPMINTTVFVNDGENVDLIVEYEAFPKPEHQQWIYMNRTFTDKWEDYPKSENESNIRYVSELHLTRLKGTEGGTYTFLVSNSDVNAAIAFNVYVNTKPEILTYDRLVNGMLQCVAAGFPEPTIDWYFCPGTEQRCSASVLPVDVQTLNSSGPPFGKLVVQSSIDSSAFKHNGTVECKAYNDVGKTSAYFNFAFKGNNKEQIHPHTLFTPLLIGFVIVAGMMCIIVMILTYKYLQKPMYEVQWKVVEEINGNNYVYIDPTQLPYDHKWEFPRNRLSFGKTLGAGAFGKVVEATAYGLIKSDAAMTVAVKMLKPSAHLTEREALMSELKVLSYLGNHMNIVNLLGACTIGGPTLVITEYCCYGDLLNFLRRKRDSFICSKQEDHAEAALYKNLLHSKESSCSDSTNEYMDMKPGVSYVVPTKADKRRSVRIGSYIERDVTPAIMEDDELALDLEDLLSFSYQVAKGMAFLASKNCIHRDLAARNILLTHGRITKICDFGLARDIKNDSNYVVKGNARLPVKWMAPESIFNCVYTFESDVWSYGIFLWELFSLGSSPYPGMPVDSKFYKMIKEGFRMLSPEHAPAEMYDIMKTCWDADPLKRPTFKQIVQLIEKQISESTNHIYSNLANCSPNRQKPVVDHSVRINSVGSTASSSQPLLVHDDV
# Chain of UniProt Q8TDC3 (whole entry, looked up): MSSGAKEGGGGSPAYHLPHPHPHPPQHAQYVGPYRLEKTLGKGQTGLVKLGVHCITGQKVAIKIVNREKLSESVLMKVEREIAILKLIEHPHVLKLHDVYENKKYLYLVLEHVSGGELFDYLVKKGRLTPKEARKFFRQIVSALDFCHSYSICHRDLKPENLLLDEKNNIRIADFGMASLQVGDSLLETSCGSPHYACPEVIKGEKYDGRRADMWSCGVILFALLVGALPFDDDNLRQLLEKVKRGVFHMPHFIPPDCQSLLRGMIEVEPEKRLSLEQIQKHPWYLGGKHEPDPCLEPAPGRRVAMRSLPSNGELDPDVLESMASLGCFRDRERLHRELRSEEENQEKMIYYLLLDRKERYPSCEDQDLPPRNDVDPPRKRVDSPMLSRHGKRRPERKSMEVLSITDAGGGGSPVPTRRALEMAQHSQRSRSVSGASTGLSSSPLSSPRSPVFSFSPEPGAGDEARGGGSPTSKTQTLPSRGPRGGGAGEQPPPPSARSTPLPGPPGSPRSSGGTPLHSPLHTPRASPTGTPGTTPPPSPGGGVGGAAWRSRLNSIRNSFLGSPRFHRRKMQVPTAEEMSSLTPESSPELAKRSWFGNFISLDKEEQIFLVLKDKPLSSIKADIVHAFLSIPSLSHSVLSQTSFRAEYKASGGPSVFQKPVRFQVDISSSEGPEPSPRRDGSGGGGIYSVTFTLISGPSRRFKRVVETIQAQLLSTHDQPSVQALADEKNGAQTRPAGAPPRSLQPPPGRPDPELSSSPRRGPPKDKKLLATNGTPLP
# Chain of UniProt P54756 (whole entry, looked up): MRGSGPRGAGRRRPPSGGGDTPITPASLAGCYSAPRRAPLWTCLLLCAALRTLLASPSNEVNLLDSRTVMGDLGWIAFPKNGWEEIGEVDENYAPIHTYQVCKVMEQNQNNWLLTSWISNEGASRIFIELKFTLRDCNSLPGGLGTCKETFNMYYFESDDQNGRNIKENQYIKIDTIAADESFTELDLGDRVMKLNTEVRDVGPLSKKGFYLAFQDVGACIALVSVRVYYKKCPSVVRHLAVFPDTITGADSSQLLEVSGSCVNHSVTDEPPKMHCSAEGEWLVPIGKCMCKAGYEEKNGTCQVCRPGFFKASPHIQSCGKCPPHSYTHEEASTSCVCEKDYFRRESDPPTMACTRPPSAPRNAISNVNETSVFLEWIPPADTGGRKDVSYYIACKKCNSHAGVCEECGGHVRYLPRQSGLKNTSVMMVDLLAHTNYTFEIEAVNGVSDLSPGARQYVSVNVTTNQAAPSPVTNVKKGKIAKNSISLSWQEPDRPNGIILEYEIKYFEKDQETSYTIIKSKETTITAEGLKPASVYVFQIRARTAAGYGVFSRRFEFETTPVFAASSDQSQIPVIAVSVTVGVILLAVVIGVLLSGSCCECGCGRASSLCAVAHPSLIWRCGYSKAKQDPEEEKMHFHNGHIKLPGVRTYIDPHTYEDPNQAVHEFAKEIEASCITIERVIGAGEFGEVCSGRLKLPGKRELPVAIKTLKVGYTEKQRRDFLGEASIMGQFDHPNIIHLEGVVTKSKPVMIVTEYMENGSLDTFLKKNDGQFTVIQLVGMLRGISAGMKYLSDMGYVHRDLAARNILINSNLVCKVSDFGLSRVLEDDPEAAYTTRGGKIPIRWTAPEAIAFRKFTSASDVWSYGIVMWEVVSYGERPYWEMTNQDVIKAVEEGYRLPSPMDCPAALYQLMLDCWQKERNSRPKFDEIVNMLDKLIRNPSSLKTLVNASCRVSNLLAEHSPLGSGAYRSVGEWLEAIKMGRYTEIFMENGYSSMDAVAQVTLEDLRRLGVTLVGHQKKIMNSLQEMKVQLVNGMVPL
# Chain of UniProt Q9HAZ1 (whole entry, looked up): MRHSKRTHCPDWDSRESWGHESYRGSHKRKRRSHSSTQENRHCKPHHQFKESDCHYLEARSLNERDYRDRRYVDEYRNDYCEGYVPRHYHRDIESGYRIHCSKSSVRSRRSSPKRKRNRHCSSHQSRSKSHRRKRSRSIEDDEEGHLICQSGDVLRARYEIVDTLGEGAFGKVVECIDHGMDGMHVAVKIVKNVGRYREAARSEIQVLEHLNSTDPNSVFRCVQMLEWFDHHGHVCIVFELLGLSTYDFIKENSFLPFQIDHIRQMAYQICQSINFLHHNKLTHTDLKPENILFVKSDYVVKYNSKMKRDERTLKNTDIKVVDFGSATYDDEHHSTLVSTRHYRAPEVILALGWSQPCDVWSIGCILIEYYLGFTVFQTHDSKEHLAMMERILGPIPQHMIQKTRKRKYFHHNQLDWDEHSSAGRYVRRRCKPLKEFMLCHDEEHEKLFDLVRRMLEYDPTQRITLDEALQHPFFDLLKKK
# Chain of UniProt P36507 (whole entry, looked up): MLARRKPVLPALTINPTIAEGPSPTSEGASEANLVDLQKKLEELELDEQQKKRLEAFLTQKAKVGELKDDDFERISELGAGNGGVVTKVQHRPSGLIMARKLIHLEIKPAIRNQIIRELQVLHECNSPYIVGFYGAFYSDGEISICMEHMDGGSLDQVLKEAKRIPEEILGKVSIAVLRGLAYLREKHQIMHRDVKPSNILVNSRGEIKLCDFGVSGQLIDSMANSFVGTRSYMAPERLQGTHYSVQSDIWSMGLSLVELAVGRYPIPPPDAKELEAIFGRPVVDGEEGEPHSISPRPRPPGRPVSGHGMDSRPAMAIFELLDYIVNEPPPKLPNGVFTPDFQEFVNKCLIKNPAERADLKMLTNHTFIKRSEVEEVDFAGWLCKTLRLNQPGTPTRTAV
# Chain of UniProt O14733 (whole entry, looked up): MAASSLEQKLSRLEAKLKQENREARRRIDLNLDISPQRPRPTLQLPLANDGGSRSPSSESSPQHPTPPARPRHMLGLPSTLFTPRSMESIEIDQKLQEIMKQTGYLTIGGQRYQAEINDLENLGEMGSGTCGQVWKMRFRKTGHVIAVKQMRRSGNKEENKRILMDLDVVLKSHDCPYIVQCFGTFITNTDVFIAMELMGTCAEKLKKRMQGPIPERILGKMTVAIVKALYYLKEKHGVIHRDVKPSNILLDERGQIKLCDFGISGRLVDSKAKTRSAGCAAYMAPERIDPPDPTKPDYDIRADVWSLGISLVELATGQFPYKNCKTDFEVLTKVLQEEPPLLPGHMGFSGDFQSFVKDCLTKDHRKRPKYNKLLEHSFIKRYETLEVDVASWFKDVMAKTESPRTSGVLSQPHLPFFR

# Sample 1
# Compound: O=C(O)c1cc(-c2ccc(C3CCNCC3)cc2)c2ccc(-c3ccc(C(F)(F)F)cc3)cc2c1
# Effect on: cell-free assay
# Technique: competition with immobilised ligand
# Tested at: 1 µM
target,remaining binding
"MAP2K7 (Homo sapiens, UniProt O14733)",100%
"KIT (Homo sapiens, UniProt P10721, D816V)",100%
"EGFR (Homo sapiens, UniProt P00533, del752-759)",100%
"BRSK1 (Homo sapiens, UniProt Q8TDC3)",100%
"CDKL5 (Homo sapiens, UniProt O76039)",100%
"PRKG1 (Homo sapiens, UniProt Q13976)",100%
"CLK4 (Homo sapiens, UniProt Q9HAZ1)",100%
"EPHA5 (Homo sapiens, UniProt P54756)",97%
"MAP2K2 (Homo sapiens, UniProt P36507)",90%
"KIT (Homo sapiens, UniProt P10721, L576P)",100%
"PIK3CA (Homo sapiens, UniProt P42336, H1047Y)",84%
"SNRK (Homo sapiens, UniProt Q9NRH2)",71%
"SGK3 (Homo sapiens, UniProt Q96BR1)",100%
"MYLK (Homo sapiens, UniProt Q15746)",85%
"PKN1 (Homo sapiens, UniProt Q16512)",100%
"MAP4K5 (Homo sapiens, UniProt Q9Y4K4)",100%
"EGFR (Homo sapiens, UniProt P00533, L861Q)",100%

# Sample 2
# Cell line: mouse MPNST tumor cells
# Technique: high-content immunofluorescence imaging
# Refers to: nuclear SOX9
# Tested at: 10 µM
# Time: 12 h
# Setting: mean of 2 replicates
# Relative to: DMSO control
# Direction: higher = more nuclear SOX9
SMILES,nuclear SOX9 intensity
Cc1cc(NC(=O)Nc2ccc(F)c(F)c2)n(-c2ccccc2)n1,91 % of DMSO
NCCNS(=O)(=O)c1ccc(Cl)c2ccncc12,111 % of DMSO
CN1CCN(c2nc(-c3ccc(C(=O)NC4(C(=O)NCC#N)CCCCC4)cc3)cs2)CC1,105 % of DMSO
CC[C@@H](CO)NCCN[C@@H](CC)CO,102 % of DMSO and 105 % of DMSO
CC1=C(C(=O)Nc2cc(Cl)ccc2Cl)C(c2ccco2)C2=C(CCCC2=O)N1 (centres unmarked),95 % of DMSO
Cc1cc(C)nc(NS(=O)(=O)c2ccc(N)cc2)n1,99.9 % of DMSO
CCCCc1ncc(/C=C(\Cc2cccs2)C(=O)O)n1Cc1ccc(C(=O)O)cc1,103 % of DMSO
Clc1ccc2c(c1)C(N1CCNCC1)=Nc1ccccc1O2,165 % of DMSO and 173 % of DMSO
CO[C@H]1/C=C/O[C@@]2(C)Oc3c(C)c(O)c4c(O)c(c(/C=N/N5CCN(C)CC5)c(O)c4c3C2=O)NC(=O)/C(C)=C\C=C\[C@H](C)[C@H](O)[C@@H](C)[C@@H](O)[C@@H](C)[C@H](OC(C)=O)[C@@H]1C,89.9 % of DMSO
NC(=O)NC1NC(=O)NC1=O (centres unmarked),105 % of DMSO
CCCCN1CCCCC1C(=O)Nc1c(C)cccc1C (centres unmarked),109 % of DMSO

# Sample 3
# Cell line: HaCaT
# Tested at: 100 µM
# Time: 36 h
Compound,viability
CC(=O)O[C@]1(C(C)=O)CC[C@H]2[C@@H]3CCC4=CC(=O)CCC4=C3[C@@H](c3ccc(N(C)C)cc3)C[C@@]21C,67.4%
CCC(=O)O[C@]1(C(=O)CCl)[C@@H](C)C[C@H]2[C@@H]3CCC4=CC(=O)C=C[C@]4(C)[C@@]3(F)[C@@H](O)C[C@@]21C,36.9%
Cc1nccnc1N1CCCCC1,70.1%
CCN(CC)CCNC(=O)c1ccc(NC(C)=O)cc1,79.9%
CCn1cc(C(=O)O)c(=O)c2cc(F)c(N3CCNCC3)cc21,75.7%
CCCCC(=O)N(Cc1ccc(-c2ccccc2-c2nnn[nH]2)cc1)[C@H](C(=O)O)C(C)C,94.6%

# Sample 4
# Target: Macrophage colony-stimulating factor 1 receptor (CSF1R, Homo sapiens, UniProt P07333)
# Chain of UniProt P07333 (whole entry, looked up): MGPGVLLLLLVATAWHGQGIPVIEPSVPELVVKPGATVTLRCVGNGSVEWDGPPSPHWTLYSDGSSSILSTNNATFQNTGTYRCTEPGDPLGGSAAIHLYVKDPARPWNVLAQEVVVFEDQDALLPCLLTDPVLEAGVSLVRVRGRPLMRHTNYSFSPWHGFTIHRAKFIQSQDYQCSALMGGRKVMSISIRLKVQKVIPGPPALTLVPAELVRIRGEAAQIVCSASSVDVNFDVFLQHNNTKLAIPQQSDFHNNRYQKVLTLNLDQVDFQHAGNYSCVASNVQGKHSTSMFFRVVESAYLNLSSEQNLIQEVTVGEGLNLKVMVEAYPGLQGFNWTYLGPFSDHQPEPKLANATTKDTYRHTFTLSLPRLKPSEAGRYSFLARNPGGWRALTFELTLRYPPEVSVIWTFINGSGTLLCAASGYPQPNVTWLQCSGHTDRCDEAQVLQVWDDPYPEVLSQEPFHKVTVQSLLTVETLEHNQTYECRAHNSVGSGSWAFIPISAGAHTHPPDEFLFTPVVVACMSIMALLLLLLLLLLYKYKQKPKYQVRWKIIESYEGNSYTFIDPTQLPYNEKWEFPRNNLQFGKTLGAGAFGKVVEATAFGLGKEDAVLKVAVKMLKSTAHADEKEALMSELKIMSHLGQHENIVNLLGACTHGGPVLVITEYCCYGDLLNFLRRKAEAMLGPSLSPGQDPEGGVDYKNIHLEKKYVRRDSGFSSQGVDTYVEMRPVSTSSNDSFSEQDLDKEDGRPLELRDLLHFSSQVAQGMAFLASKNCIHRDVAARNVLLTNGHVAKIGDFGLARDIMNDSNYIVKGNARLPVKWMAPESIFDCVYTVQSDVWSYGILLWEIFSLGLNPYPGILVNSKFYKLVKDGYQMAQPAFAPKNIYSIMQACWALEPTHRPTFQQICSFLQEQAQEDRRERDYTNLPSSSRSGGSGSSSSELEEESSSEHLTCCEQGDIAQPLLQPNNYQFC
# Effect on: enzyme activity
# Action: inhibitor
# Tested at: 0.5 µM
# Relative to: control
SMILES,remaining activity
Nc1nc(Nc2ccc(S(N)(=O)=O)cc2)nn1C(=S)Nc1c(F)cccc1F,10.6%
CC(C)(C)c1nc2c3cc[nH]c(=O)c3c3cc(F)ccc3c2[nH]1,93%
N#C/C(=C(/N)SC1C=CC=CC1)c1cccc(C(O)c2ccncc2)c1 (centres unmarked),101%
NC(=O)c1ccc(-c2nc(-c3ccc4c(c3)OCCO4)c(-c3ccccn3)[nH]2)cc1,98%
O=C(O)/C=C/c1cc(Br)c(Br)c(Br)c1Br,99%
c1cc(-c2cnn3cc(-c4ccc(OCCN5CCCCC5)cc4)cnc23)ccn1,19.8%
CCCCc1c(-c2ccc(O)cc2)[nH]c2nccnc12,38.4%
O=c1c(-c2ccc(F)cc2)c(-c2ccncc2)[nH]n1-c1ccc(Cl)cc1,102%
CNc1cc2c(Nc3cccc(Br)c3)ncnc2cn1,100%
NC(=O)c1cccc(-c2cc(Nc3ccc(OC(F)(F)F)cc3)ncn2)c1,94.1%
C[C@@H](N)[C@H]1CC[C@H](C(=O)Nc2ccncc2)CC1,97%
O=C1c2ccccc2-c2nc3nnnn3nc21,11.6%
CCN(CC)CCCCN1c2ccccc2Oc2ccc(Cl)cc21,97.8%
O=C(c1ccccc1)c1ccc(N2CCOCC2)cc1O,99.7%
CC(C)N(CCC(=O)c1ccc2ccccc2c1)Cc1ccccc1,98.6%
N#CC(c1ccnc(NCCc2cccnc2)n1)c1nc2ccccc2s1 (centres unmarked),99.2%
CC(C)n1cnc2c(Nc3cccc(Cl)c3)nc(NCCO)nc21,94.8%
FC(F)(F)c1ccc(/C=C/c2nc(COc3ccc(CCCCn4ccnn4)cc3)co2)cc1,103%
O=C1NC(=O)/C(=C/c2ccc3c(c2)OC(F)(F)O3)S1,106%
